Results of several laboratories.
Protocols differ between the studies behind these lines. Several values in a cell are separate wells, animals, samples, runs or records. ± marks the error that the study gave.
Lrrk2: Leucine-rich repeat serine/threonine-protein kinase 2 (Lrrk2, Mus musculus, UniProt Q5S006)
Chain of UniProt Q5S006 (whole entry, looked up): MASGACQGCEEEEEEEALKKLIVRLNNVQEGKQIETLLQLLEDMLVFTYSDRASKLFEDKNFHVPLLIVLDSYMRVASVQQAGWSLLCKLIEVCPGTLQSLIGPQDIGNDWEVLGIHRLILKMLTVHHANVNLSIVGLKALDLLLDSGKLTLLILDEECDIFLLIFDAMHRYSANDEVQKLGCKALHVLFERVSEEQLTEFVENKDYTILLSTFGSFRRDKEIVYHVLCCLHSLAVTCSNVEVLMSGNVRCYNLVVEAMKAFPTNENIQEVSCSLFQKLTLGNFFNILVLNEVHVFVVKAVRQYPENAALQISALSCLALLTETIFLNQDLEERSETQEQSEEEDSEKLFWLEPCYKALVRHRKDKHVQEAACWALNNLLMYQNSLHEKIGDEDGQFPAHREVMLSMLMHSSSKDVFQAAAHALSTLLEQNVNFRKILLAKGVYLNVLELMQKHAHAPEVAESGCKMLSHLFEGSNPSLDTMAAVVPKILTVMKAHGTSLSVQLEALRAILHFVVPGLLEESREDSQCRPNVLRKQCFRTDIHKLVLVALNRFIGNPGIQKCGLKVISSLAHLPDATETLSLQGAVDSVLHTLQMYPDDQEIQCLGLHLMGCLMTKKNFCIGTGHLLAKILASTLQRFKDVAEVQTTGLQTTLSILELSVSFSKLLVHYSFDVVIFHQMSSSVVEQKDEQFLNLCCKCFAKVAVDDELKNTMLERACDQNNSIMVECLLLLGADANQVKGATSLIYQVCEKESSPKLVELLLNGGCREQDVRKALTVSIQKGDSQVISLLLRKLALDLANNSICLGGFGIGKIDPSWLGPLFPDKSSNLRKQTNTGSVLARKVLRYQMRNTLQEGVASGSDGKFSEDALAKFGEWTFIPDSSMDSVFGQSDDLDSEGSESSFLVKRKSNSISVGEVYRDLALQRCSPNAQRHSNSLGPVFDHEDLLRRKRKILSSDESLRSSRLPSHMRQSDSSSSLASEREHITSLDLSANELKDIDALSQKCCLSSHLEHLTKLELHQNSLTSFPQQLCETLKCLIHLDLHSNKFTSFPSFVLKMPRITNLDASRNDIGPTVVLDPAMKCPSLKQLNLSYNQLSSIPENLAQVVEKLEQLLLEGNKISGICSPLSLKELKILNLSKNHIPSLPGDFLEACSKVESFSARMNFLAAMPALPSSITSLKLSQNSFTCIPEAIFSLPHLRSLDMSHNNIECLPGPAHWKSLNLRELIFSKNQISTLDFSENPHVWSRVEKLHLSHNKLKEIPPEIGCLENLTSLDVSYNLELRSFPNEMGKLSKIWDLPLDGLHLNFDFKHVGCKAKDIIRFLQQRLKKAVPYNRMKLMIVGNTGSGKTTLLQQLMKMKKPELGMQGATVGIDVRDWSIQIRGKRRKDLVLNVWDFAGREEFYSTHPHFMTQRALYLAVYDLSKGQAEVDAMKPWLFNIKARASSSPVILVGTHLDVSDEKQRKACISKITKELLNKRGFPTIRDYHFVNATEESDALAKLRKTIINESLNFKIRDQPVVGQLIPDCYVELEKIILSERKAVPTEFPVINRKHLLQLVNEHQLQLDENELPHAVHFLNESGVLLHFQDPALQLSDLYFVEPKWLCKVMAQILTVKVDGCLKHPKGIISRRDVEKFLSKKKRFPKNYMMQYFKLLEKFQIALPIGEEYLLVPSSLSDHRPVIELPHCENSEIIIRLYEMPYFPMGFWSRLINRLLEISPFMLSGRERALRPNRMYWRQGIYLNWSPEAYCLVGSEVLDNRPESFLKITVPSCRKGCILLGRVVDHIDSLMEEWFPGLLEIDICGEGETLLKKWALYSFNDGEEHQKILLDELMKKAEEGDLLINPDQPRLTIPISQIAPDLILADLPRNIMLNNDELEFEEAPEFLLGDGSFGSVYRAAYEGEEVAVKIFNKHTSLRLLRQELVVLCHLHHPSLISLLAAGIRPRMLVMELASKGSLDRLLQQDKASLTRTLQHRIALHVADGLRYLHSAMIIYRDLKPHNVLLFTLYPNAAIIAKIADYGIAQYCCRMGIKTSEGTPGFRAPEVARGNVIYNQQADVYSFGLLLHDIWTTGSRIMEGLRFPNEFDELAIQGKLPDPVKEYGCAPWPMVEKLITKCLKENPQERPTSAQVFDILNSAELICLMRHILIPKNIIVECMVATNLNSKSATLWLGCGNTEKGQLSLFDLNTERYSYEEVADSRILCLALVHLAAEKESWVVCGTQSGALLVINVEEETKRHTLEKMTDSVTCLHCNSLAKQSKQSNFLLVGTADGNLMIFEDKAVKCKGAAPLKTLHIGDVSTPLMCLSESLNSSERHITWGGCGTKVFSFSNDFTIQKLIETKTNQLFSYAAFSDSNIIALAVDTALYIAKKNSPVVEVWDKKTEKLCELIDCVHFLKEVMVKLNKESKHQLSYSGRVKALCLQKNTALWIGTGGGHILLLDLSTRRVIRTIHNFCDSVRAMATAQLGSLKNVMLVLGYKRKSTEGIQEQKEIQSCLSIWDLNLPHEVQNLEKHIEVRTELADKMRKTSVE
Melanocortin receptor 5: Melanocortin receptor 5 (Mus musculus, UniProt P41149)
Chain of UniProt P41149 (whole entry, looked up): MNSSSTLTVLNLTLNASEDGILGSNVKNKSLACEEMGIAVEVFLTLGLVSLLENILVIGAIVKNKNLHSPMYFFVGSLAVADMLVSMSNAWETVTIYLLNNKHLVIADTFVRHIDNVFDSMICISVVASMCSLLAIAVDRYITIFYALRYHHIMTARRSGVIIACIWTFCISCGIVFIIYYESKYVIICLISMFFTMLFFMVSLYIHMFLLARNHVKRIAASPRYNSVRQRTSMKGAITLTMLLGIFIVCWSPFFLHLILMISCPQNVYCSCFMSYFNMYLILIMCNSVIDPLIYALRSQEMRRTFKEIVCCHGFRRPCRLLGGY
Chain of UniProt Q80W57 (whole entry, looked up): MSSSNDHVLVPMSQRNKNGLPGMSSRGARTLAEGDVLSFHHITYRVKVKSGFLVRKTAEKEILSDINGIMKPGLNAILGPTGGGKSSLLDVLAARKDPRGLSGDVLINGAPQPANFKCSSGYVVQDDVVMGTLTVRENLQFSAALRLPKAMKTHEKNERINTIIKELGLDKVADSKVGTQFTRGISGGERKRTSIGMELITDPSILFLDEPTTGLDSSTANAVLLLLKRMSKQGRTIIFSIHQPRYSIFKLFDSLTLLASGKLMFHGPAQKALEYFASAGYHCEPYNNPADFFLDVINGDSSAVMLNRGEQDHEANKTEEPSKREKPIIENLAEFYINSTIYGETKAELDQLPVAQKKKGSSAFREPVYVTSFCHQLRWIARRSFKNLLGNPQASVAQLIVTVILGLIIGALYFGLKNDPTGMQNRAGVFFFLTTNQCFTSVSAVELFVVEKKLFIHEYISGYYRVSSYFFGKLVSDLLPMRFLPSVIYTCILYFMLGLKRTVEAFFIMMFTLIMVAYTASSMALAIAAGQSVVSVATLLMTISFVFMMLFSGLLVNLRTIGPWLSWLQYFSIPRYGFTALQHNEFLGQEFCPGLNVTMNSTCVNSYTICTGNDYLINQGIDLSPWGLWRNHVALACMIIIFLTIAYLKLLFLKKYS
Chain of UniProt Q9UHM6 (whole entry, looked up): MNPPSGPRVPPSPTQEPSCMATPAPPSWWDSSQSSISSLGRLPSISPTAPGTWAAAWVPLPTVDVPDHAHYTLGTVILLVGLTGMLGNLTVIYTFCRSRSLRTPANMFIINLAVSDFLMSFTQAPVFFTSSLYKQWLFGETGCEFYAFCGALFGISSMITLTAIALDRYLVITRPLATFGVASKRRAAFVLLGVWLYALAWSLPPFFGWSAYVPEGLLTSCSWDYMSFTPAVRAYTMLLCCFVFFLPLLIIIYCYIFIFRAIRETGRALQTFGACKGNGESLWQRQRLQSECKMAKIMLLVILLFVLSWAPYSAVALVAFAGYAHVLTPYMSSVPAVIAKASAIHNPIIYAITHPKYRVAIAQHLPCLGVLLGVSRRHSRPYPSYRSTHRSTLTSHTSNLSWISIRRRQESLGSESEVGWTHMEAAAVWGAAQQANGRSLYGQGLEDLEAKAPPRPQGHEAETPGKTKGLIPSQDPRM

Compound	tested on	test	system	conditions	quantity	value
COc1ccc2cc3[n+](cc2c1OC)CCc1cc2c(cc1-3)OCO2	class I HDAC	enzyme activity	bovine heart lysate	–	IC50	20 µM
O=C(CCCCCCC(=O)Nc1ccccc1)NO	histone deacetylase, mouse	inhibitor	GL261 cell nuclear extract	–	IC50	0.8 µM
Oc1ccc(/C=C/c2ccccc2)cc1O	iNOS, mouse	NO production, inhibitor	RAW264.7	with: LPS	IC50	> 25 µg/mL
O=c1cc(-c2ccc(O)c(O)c2)oc2cc(O)cc(O)c12	CYP3A	inhibitor	pooled human liver microsomes	no preincubation	IC50	12.4 µM
Clc1cccc(SSc2cccc(Cl)c2)c1	tubulin	–	–	–	IC50	3.1 ± 0.4 µM
Nc1ncnc2c1ncn2[C@@H]1O[C@H](COP(=O)(O)OP(=O)(O)O)[C@@H](O)[C@H]1O	Lrrk2	enzyme activity, inhibitor, radiometric	–	Ki,eb, with: LRRKtide substrate varied	Ki	200 ± 20 µM
Clc1ccccc1	cysteine peptide Ac-RFAACAA-COOH	peptide depletion, DPRA RapidFire-MS/MS	–	24 h, pH 7.5, room temperature, with: 5.0 µM cysteine peptide	IC50	inactive
NC[C@@H]1O[C@H](O[C@H]2[C@@H](O)[C@H](O[C@@H]3[C@@H](O)[C@H](N)C[C@H](N)[C@H]3O[C@H]3O[C@H](CN)[C@@H](O)[C@H](O)[C@H]3N)O[C@@H]2CO)[C@H](N)[C@@H](O)[C@@H]1O	HIV-1 nucleocapsid protein-SL3 RNA complex	complex dissociation, ESI-FTMS	–	preformed complex ~3.5 µM	IC50	31.1 ± 2.8 µM
O=c1c(O)c(-c2cc(O)c(O)c(O)c2)oc2cc(O)cc(O)c12	class I HDAC	enzyme activity	bovine heart lysate	–	IC50	20 µM
[Ca+2]	rod cGMP-gated channel, Ambystoma tigrinum	ion current, inside-out patch clamp	–	after EDTA/EGTA, -40 mV, with: calmodulin 200 nM, cGMP 20 µM	IC50	0.632 µM and 0.679 µM
Cc1c(C)c(NC(=O)C2CCN(Cc3ccccc3)C2)c(C)c(C)c1Cl (centres unmarked)	sodium channel Nav1.4 (frog)	tonic block of sodium current, vaseline-gap voltage clamp	Pelophylax lessonae semitendinosus fibres	10 °C	IC50	35.8 ± 4.1 µM
CCCCCCCCCCCCCCCC(=O)Cl	cysteine peptide Ac-RFAACAA-COOH	peptide depletion, DPRA RapidFire-MS/MS	–	24 h, pH 7.5, room temperature, with: 5.0 µM cysteine peptide	IC50	inactive
NC[C@@H]1O[C@H](O[C@H]2[C@@H](O)[C@H](O[C@@H]3[C@@H](O)[C@H](N)C[C@H](N)[C@H]3O[C@H]3O[C@H](CO)[C@@H](O)[C@H](O)[C@H]3N)O[C@@H]2CO)[C@H](N)[C@@H](O)[C@@H]1O	HIV-1 nucleocapsid protein-SL3 RNA complex	complex dissociation, ESI-FTMS	–	preformed complex ~3.5 µM	IC50	311 ± 13.3 µM
Cc1cccc(C)c1NC(=O)C1CN(Cc2ccccc2)CCN1 (centres unmarked)	sodium channel Nav1.4 (frog)	tonic block of sodium current, vaseline-gap voltage clamp	Pelophylax lessonae semitendinosus fibres	10 °C	IC50	31.5 ± 0.8 µM
C=CC(=O)OCC	cysteine peptide Ac-RFAACAA-COOH	peptide depletion, DPRA RapidFire-MS/MS	–	24 h, pH 7.5, room temperature, with: 5.0 µM cysteine peptide	IC50	inactive
CC1=C(/C=C/C(C)=C/C=C/C(C)=C/C=O)C(C)(C)CCC1	rod CNG channel (Ambystoma tigrinum)	ion current, inhibitor, inside-out patch clamp	–	pH 7.2, room temperature, with: cGMP 2 mM	IC50	0.25 µM
CC(C)(O)C(O)Cc1c(O)cc(/C=C/c2ccccc2)cc1O (centres unmarked)	iNOS, mouse	NO production, inhibitor	RAW264.7	with: LPS	IC50	> 25 µg/mL
O=c1cc(-c2ccc(O)cc2)oc2cc(O)cc(O)c12	class I HDAC	enzyme activity	bovine heart lysate	–	IC50	27 µM
Nc1ncnc2c1ncn2[C@@H]1O[C@H](COP(=O)(O)OP(=O)(O)O)[C@@H](O)[C@H]1O	Sodium/potassium-transporting ATPase subunit alpha-1 (ATP1A1, Sus scrofa, UniProt P05024)	binding, radioligand binding	pig membranes	pH 7.7, 0 °C, ionic strength 78 mM, with: NaCl 19 mM	Kd	0.27 ± 0.004 µM
CCCCCCC#CC(=O)OC	cysteine peptide Ac-RFAACAA-COOH	peptide depletion, DPRA RapidFire-MS/MS	–	24 h, pH 7.5, room temperature, with: 5.0 µM cysteine peptide	IC50	351 µM
CC[N+](CC)(CC)CC	acetylcholine receptor channel	endplate current, channel blocker, voltage clamp	Lithobates pipiens, frog sartorius muscle	membrane potential -150 mV	IC50	170 µM
CC(C=O)Cc1ccc(C(C)(C)C)cc1 (centres unmarked)	cysteine peptide Ac-RFAACAA-COOH	peptide depletion, DPRA RapidFire-MS/MS	–	24 h, pH 7.5, room temperature, with: 5.0 µM cysteine peptide	IC50	35.8 µM

Compound	tested on	test	system	conditions	quantity	value
O=C(O)c1cc(/N=N/c2ccc(S(=O)(=O)Nc3ccccn3)cc2)ccc1O	Broad substrate specificity ATP-binding cassette transporter ABCG2 (Abcg2, Rattus norvegicus, UniProt Q80W57)	–	male Sprague-Dawley rat, plasma	oral, 2 mg/kg	Tmax	26.3 min
Fc1cccc(SSc2cccc(F)c2)c1	tubulin	–	–	–	IC50	4.8 ± 0.1 µM
O=c1cc(-c2ccc(O)c(O)c2)oc2cc(O)cc(O)c12	class I HDAC	enzyme activity	bovine heart lysate	–	IC50	17 µM
COc1cc(Cl)c(S(=O)(=O)N2CCCCC2)cc1Cl	Melanopsin (OPN4, Homo sapiens, UniProt Q9UHM6)	calcium release, antagonist, Schild analysis	CHO cells expressing OPN4	previously light-exposed cells, with: 9-cis retinal	Kb	0.0062 ± 0.0011 µM
CCOC(=O)c1ccccc1C(=O)OCC	cysteine peptide Ac-RFAACAA-COOH	peptide depletion, DPRA RapidFire-MS/MS	–	24 h, pH 7.5, room temperature, with: 5.0 µM cysteine peptide	IC50	inactive
Nc1ncnc2c1ncn2[C@@H]1O[C@H](COP(=O)(O)OP(=O)(O)NP(=O)(O)O)[C@@H](O)[C@H]1O	Lrrk2	enzyme activity, inhibitor, radiometric	–	–	Ki	1800 µM
Brc1ccccc1SSc1ccccc1Br	tubulin	–	–	–	IC50	1.2 ± 0.1 µM
COc1ccc(/C=C/c2cc(O)cc(O[C@@H]3O[C@H](CO)[C@@H](O)[C@H](O)[C@H]3O)c2)cc1O	iNOS, mouse	NO production, inhibitor	RAW264.7	with: LPS	IC50	> 25 µg/mL
O=c1cc(-c2ccccc2)oc2cc(O)c(O)c(O)c12	class I HDAC	enzyme activity	bovine heart lysate	–	IC50	45 µM
Cc1cc(C)c(C)c(NC(=O)C2CCN(Cc3ccccc3)C2)c1C (centres unmarked)	sodium channel Nav1.4 (frog)	tonic block of sodium current, vaseline-gap voltage clamp	Pelophylax lessonae semitendinosus fibres	10 °C	IC50	17.2 ± 1.2 µM
O=C1Nc2ccccc2/C1=C1/Nc2ccccc2C1=O	class I HDAC	enzyme activity, inhibitor	–	–	IC50	15 µM
Cc1cccc(C)c1NC(=O)C1CCN(Cc2ccccc2)C1 (racemic)	sodium channel Nav1.4 (frog)	tonic block of sodium current, vaseline-gap voltage clamp	Pelophylax lessonae semitendinosus fibres	10 °C	IC50	27.5 ± 1.1 µM
Cc1cc(O)c2c(c1)C(=O)c1cc(O)cc(O)c1C2=O	class I HDAC	enzyme activity	bovine heart lysate	–	IC50	22 µM
CCCC[C@H](NC(C)=O)C(=O)N[C@H]1CCC(=O)NC[C@@H](C(=O)N[C@@H](Cc2c[nH]c3ccccc23)C(N)=O)NC(=O)[C@H](CCCNC(=N)N)NC(=O)[C@@H](Cc2ccccc2)NC(=O)[C@H](Cc2c[nH]cn2)NC1=O	–	–	healthy volunteers, both sexes, plasma	subcutaneous, 1.0 mg once daily, day 1	median AUC(0-inf)	49.4 ng·h/mL
O=C(Nc1ccccc1)C1CCN(Cc2ccccc2)C1 (centres unmarked)	sodium channel Nav1.4 (frog)	tonic block of sodium current, vaseline-gap voltage clamp	Pelophylax lessonae semitendinosus fibres	10 °C	IC50	30.2 ± 5.3 µM
O=C1CCc2ccccc2O1	cysteine peptide Ac-RFAACAA-COOH	peptide depletion, DPRA RapidFire-MS/MS	–	24 h, pH 7.5, room temperature, with: 5.0 µM cysteine peptide	IC50	69.5 µM
CSCC[C@H](NC(=O)[C@@H]1CCCN1C(=O)[C@@H](NC(=O)[C@H](Cc1ccc(O)cc1)NC(=O)[C@H](C)NC(=O)[C@@H]1CCCN1C(=O)[C@@H]1CCCN1C(=O)[C@@H]1CCCN1C(=O)[C@H](CO)NC(=O)[C@H](Cc1c[nH]cn1)NC(=O)CN)[C@@H](C)O)C(=O)N[C@@H](CO)C(=O)O	Transcriptional coactivator YAP1, WW1 domain (YAP1, Homo sapiens, UniProt P46937)	binding, ITC	–	pH 7.0, 25 °C, WW1 domain	TΔS	2.63 ± 0.25 kcal/mol
COc1ccc([C@@H]2CC(=O)c3c(O)cc(O)cc3O2)cc1O	human intestinal sulfotransferases	DHEA sulfation, radiometric	human intestine cytosol	with: DHEA 2 µM	IC50	91 ± 9.5 µM
CSCC[C@H](NC(=O)[C@H](CO)NC(=O)[C@H](Cc1ccc(O)cc1)NC(=O)[C@H](CO)NC(C)=O)C(=O)N[C@@H](CCC(=O)O)C(=O)N[C@@H](Cc1c[nH]cn1)C(=O)N[C@@H](C)C(=O)N[C@@H](CCCNC(=N)N)C(=O)N[C@@H](Cc1c[nH]c2ccccc12)C(=O)NCC(=O)N[C@@H](CCCCN)C(=O)N1CCC[C@H]1C(=O)N[C@H](C(N)=O)C(C)C	Melanocortin receptor 5	–	–	–	EC50	4.2 ± 2.1 µM
Fc1ccc(SSc2ccc(F)cc2)cc1	tubulin	–	–	–	IC50	1.9 ± 0.06 µM
CCCC[C@H](NC(=O)[C@H](CO)NC(=O)[C@H](Cc1ccc(O)cc1)NC(=O)[C@H](CO)NC(C)=O)C(=O)N[C@@H](CCC(=O)O)C(=O)N[C@@H](C)C(=O)N[C@H](Cc1ccccc1)C(=O)N[C@@H](CCCNC(=N)N)C(=O)N[C@@H](Cc1c[nH]c2ccccc12)C(=O)NCC(=O)N[C@@H](CCCCN)C(=O)N1CCC[C@H]1C(=O)N[C@H](C(N)=O)C(C)C	Melanocortin receptor 5	–	–	–	EC50	0.00029 ± 0.00016 µM
O=c1[nH]sc2ccccc12	cysteine peptide Ac-RFAACAA-COOH	peptide depletion, DPRA RapidFire-MS/MS	–	24 h, pH 7.5, room temperature, with: 5.0 µM cysteine peptide	IC50	0.865 µM

A few entries again:
Compound	tested on	test	system	conditions	quantity	value
O=c1cc(-c2ccc(O)cc2)oc2cc(O)cc(O)c12	class I HDAC	enzyme activity	bovine heart lysate	–	IC50	27 µM
C=CC(=O)OCC	cysteine peptide Ac-RFAACAA-COOH	peptide depletion, DPRA RapidFire-MS/MS	–	24 h, pH 7.5, room temperature, with: 5.0 µM cysteine peptide	IC50	inactive
O=C1CCc2ccccc2O1	cysteine peptide Ac-RFAACAA-COOH	peptide depletion, DPRA RapidFire-MS/MS	–	24 h, pH 7.5, room temperature, with: 5.0 µM cysteine peptide	IC50	69.5 µM
CC1=C(/C=C/C(C)=C/C=C/C(C)=C/C=O)C(C)(C)CCC1	rod CNG channel (Ambystoma tigrinum)	ion current, inhibitor, inside-out patch clamp	–	pH 7.2, room temperature, with: cGMP 2 mM	IC50	0.25 µM
O=c1[nH]sc2ccccc12	cysteine peptide Ac-RFAACAA-COOH	peptide depletion, DPRA RapidFire-MS/MS	–	24 h, pH 7.5, room temperature, with: 5.0 µM cysteine peptide	IC50	0.865 µM
